Experimental data pooled from the literature.
A part holds a random share of what one study measured. Substitutions count along the parent as printed.

Block 1 — technique: RNA Bind-n-Seq; form: RNA; sample: in vitro; concentration: not given; reference: input RNA pool; direction: higher = stronger binding
Target: RING finger protein unkempt homolog, zinc fingers 1-6, GST-SBP tag (UNK, Homo sapiens, UniProt Q9C0B0, residues 30-357)
Sequence of UniProt Q9C0B0 (30-357, looked up): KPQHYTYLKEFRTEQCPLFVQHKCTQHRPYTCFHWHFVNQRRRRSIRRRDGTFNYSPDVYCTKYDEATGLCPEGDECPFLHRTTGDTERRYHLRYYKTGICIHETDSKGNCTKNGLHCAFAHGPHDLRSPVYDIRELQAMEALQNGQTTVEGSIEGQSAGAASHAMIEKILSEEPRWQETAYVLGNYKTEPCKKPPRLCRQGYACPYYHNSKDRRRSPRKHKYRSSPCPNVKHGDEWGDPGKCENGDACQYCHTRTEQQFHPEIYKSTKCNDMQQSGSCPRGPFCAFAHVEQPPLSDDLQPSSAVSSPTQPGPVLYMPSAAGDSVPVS
Notes: RNA with constant flanks, human and mouse sites, ends assumed
Constant ends, left off below: GGGAGUUCUACAGUCCGACGAUC … CAACAGAGGAUUGAGCAUCA
| Sequence | bound/input enrichment |
| --- | --- |
| CAAAACACAAAAGCUCUUAUUUUGAAAAGUGAACAUAUAAGGCUAGAAAAAGAAAUUUCUAAGUUAAAGCAGCAAAAUGAACAGCUAAUAAAACAAAAGAAUGAAUUGUUAAGCAAUAAU | 0.47 ratio |
| CACUUGAUGCCCCCACGAAUCCUAGUGGAAUGUUUACUCCCCAAUGGAAUGAUAGUGACUUUAGAAUGCCUCCGUGAGGCCACACUCGUCACCAUCAAACAUGAACUGUUCAGAGAGGCC | 0.217 ratio |
| GCUCCCAUUGGUGUACACCCAUCCCUGGCACCUUUGGCCAAAAUCCUCGAGGGCUCUGGAGUGGAUGCAAAGGUUGAGCCAGAAGUGAAAGACUCCCUGGGGGUUUACUGUAUUGAUGCC | 0.267 ratio |
| CAGAUCCCUUCCAGCUGAGCCCCUCCCCUCCCCCCACCAUGUGUUUCUUGGUUUUCCUUUUGUUUGAUUGUCCCUCUGCCCCUCCUUCCUUGGAUUGUAAUGUAAAAUUCUUUUACCAUG | 1.71 ratio |
| CAGUUAAGGAAAGGAGUAAGUGAAAUUGGAGAAGAUGUGGACUAUGAUGAGGAACUCUAUGUUGCUGGAAAUAUGGUGAUAUGGAGCAAAGGAAGUAAAAGCCAGGCAUUGGCAGUUUAU | 0.302 ratio |
| CUUUGAGGUAAGAAAAAUGCAACCUGGACUGAUGGAUGUGUGACCCCUUGUCACCAAUGGACUAGCCUGUGACAGCCACAUCUCCAGCAUCACAACGCAGGGUCACUGCCCCAUGGUUCU | 0.104 ratio |
| UUCUUCCUCCUAGACCUGAUGCAUGUGUGUCCCUGUACUGUCUGUUUCAAACAAUCAGUGUUGAUCUUCUCUUGCAAAAGAAAGUAACAUGAUCAGUUCUUUAUAAGAAGACCUAAGUAU | 0.309 ratio |
| UGCUAGCUCAAGAAGCACCAGAGGUAUAUACAGAGUAUUGGGAUCAGAUCCAGGAUCCAUAAUAGUUUCUCACCUUGAAUCAAGGAUUUAUAUGAUAUUCUUCUCAGAUUUACUUUGUGU | 0.209 ratio |
| GACAUGUUCCUGGAAGCUCUGGGCUACACCUGGCAUGACACUUGCUUUGUAUGCUCAGUGUGUUGUGAAAGUUUGGAAGGUCAGACCUUUUUCUCCAAGAAGGACAAGCCCCUGUGUAAG | 0.0764 ratio |
| GGUAAGUGGGGGCAAGUGGGGGCAAGGGGACAUAUCAUUGUGACAACUUUUUUGAUAUUUACUAGAAAUGAUGCAAUAUAUCCUUUCUGAGAUAUUUACAGUAUUAUUAAAGGGUUGGGC | 4.66 ratio |
| CUGAUGUUCAUUCAGAGGAUAAAAGUCAUGCUCCUUUUAGCCCAGAUAAUGUAAAUCAAAAAGUUGUCCAUGACUAUCCGGAGGUUUGUUCACCUGUCAUUAGUACAUCGCAUGCAUCAU | 1.12 ratio |

Block 2 — technique: universal PBM; form: double-stranded DNA, one strand shown; sample: in vitro; concentration: 600 nM; direction: higher = stronger binding
Target: Sal-like protein 4, full length isoform A (SALL4, Homo sapiens, UniProt Q9UJQ4, residues 1-1053)
Sequence of UniProt Q9UJQ4 (whole entry, looked up): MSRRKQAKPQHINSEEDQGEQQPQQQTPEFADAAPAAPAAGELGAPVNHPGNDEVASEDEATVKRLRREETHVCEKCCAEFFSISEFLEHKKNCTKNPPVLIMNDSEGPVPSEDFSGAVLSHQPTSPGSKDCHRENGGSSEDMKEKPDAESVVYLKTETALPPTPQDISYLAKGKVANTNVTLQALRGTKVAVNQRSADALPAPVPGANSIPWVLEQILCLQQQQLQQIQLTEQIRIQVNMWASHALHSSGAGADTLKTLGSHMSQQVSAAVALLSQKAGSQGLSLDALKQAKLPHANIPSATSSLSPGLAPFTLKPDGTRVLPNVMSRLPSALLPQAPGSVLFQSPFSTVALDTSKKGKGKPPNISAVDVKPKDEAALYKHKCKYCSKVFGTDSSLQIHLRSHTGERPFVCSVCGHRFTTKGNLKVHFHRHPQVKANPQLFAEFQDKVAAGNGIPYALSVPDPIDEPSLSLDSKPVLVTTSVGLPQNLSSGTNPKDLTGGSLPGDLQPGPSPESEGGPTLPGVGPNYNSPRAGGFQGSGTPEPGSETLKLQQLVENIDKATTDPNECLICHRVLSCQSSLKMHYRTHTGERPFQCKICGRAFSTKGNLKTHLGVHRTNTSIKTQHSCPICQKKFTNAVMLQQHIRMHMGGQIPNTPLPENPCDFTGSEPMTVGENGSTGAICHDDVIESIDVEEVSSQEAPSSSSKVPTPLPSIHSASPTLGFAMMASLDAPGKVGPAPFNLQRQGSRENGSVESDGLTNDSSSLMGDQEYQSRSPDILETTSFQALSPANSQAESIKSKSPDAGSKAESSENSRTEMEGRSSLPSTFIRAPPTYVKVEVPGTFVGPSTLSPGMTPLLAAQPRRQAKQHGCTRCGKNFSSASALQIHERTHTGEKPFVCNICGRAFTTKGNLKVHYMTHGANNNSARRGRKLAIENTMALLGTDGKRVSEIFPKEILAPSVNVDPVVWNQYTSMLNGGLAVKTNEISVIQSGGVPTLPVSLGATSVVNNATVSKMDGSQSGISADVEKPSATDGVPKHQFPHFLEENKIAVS
Notes: 8-mer, flanks averaged, mean of replicates
| Sequence | E-score |
| --- | --- |
| ATACGCAG | 0.00103 |
| CCCTGATC | -0.226 |
| ATGATGAC | 0.128 |
| GGCTTGGA | -0.208 |
| ACGCCCGT | -0.187 |
| CGTCATAA | 0.295 |
| ACTCAATA | 0.322 |
| CTCCCTGA | -0.165 |
| AAGTGCTG | -0.032 |
| AGCTTGAC | -0.164 |
| AAGTGTGG | 0.00347 |
| CCCGTCGA | -0.18 |
| ATATGAGC | 0.159 |
| CCGGAGCA | -0.246 |
| GCGCAAAC | -0.192 |
| CACCTGAA | 0.112 |
| AACCCGAC | -0.0951 |
| CGCGGTAG | -0.0957 |
| CTTGGCAC | -0.071 |
| GGAGTGCC | -0.271 |
| AGCATAAA | 0.33 |
| AGTTTGGA | 0.149 |
| AGGAATAA | 0.236 |
| CGCAGGCA | -0.167 |
| ATCTTGAA | 0.23 |

Block 3 — technique: DHFR PCA, deep sequencing; sample: yeast; added: (+)-ABA 17 µM; reference: wild-type fitted maximum; direction: higher = stronger binding
Target: ABI1, truncated, D143A, DHFR fusion (Arabidopsis thaliana)
Notes: methotrexate growth selection, single substitutions
Starting sequence: PYL1, truncated, DHFR fusion (Arabidopsis thaliana); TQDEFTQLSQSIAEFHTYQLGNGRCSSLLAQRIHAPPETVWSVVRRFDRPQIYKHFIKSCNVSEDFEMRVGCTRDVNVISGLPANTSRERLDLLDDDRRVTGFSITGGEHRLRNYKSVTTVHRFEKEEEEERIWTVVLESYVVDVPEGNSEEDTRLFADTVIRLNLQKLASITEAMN
| Substitution | relative binding score |
| --- | --- |
| R123E | 101% |
| N149D | 10.4% |
| S171V | 82% |
| T39P | 28.8% |
| T173D | -6.85% |
| V76S | 0.0543% |
| G71F | 0.678% |
| E128F | 73.4% |

Block 4 — target: CEBPD, bZIP domain (human); technique: DHFR protein complementation; sample: yeast; reference: wild-type JUN-FOS pair; direction: higher = stronger binding
Notes: single substitutions, most at no-binding floor
Starting sequence: JUN, bZIP domain (human); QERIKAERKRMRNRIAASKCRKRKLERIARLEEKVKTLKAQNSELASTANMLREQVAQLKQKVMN; partner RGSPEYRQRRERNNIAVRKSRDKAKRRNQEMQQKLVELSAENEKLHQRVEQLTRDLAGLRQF
| Substitution | binding fitness [natural log] |
| --- | --- |
| A46I | -1.34 |
| M51S | -1.35 |
| V35F | -1.35 |
| I28C | -1.34 |
| K36V | -1.4 |
| L52T | -1.45 |
| L45A | -1.46 |
| T48Q | -1.27 |
| L31K | -1.5 |
| M51C | -1.37 |
| R53I | -1.42 |
| T48Y | -1.4 |

Block 5 — technique: RNA Bind-n-Seq; form: RNA; sample: in vitro; concentration: 1 µM; notes: whole 134-nt RNA, ends assumed; added: 150 mM KCl; reference: input library; direction: higher = stronger binding
Target: Ras GTPase-activating protein-binding protein 1, C-terminal RGG region (G3BP1, Homo sapiens, UniProt Q13283)
Sequence of UniProt Q13283 (whole entry, looked up): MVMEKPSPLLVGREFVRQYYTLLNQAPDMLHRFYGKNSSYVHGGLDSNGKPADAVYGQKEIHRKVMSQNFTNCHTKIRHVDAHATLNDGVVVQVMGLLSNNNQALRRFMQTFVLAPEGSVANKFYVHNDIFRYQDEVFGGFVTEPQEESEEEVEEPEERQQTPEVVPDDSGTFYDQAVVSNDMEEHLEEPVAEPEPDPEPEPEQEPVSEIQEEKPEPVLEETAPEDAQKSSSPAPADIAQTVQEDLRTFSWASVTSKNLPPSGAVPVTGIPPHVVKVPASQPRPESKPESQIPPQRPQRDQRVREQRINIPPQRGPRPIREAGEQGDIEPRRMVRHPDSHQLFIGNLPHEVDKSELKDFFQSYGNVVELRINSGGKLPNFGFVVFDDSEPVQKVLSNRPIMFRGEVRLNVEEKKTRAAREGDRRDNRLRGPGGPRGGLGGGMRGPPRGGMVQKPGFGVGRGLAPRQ
Constant ends, left off below: GGGAGUUCUACAGUCCGACGAUC … UGGAAUUCUCGGGUGUCAAGG
| Sequence | log2 enrichment |
| --- | --- |
| CACAGACAACACGCACCCACACAGACACAGAGGGAAGGGGUUGGGAUGGGGACAGGGUGCACCGCAGGGCGGGGUAGGACCCCAGCCCCU | -0.589 |
| AGUCCUGUGCUACACAUCGUAUGUACCGAAUCGGGUUUGGGUUUGGGAAAAAAAGGGAAAGUAUUAUGUUACGCCGUUCGGAUCUGCACU | 0.222 |
| GCAGGAAGUAAAAACAAAUGGAAAUGCUUCGGAUAGUGGCAGGGGUGAGGGUUGCUAAGGAAAGGGUGGGAUGGGAGUGGGUAAAGAGUU | 0.361 |
| UCCUGUGCUACACAUCGUAUGUACCGAAUCGGGUUUUUUUGGGAAAGGGAAAAAAAGGGAAAGUAUUAUGUUACGCCGUUCGGAUCUGCA | -0.856 |
| CCUGUGCUACACAUCGUAUGUACCGAAUCGGGAAAAAAAGGGUUUUUUUGGGAAAAAGGGAAAGUAUUAUGUUACGCCGUUCGGAUCUGC | -2.19 |
| UGUGGGUCCUCCUGCACCUGGUGCUGGCCUUCCUGUCCCUGCGCUCUUUGACAGCCUCCUGACCUGUAGGACGAGGGAUUCCUUGUUCUU | -0.352 |
| UGCGAUAUGAACGUUCACAAGCAAUGCGUCAUCAAUGUCCCCAGCCUCUGCGGAAUGGAUCACACUGAGAAGAGGGGGCGGAUUUACCUA | -1.2 |
| UCCUGUGCUACACAUCGUAUGUACCGAAUCGGGGUUUUUGGGGUGGGGUUUUUUUGGGGAAAGUAUUAUGUUACGCCGUUCGGAUCUGCA | 1.86 |
| CACAGACAACACGCACCCACACAGAUACAGAGGGAAGGGGUUGGGAUGGGGACAGGGUGCACAGCAGGGCGGGGUAGGACCCCAGCCCCU | -0.00531 |
| UUCCUUCCACGACCCCUGAAGAGCAGCGGUGGGUCUGAGCAUCCUAUCUCCAGGAAGCAGGCCAGCAGGCAAGCCAGCUGCCACCUCGUC | -0.212 |
| UCAAGUCCUGUGCUACACAUCGUAUGUACCGAAUCGGGGUUGGGUUGGGUUGGGAAAGUAUUAUGUUACGCCGUUCGGAUCUGCACUUCC | 1.91 |
| UAACUUUAGGGGAGGAUCUGAUGGAUAUGGCAGUGGACGUGGAUUUGGGGAUGGCUAUAAUGGGUAUGGAGGAGGACCUGGAGGUGGCAA | -0.976 |

Block 6 — target: CCNE1, cyclin fold, Cln2 fusion (human); technique: yeast growth competition, sequencing; sample: yeast; notes: strong parent motif; reference: not given; direction: higher = stronger binding
Starting sequence: PKN2 docking peptide (human); VSAVRKLDFSDTM; partner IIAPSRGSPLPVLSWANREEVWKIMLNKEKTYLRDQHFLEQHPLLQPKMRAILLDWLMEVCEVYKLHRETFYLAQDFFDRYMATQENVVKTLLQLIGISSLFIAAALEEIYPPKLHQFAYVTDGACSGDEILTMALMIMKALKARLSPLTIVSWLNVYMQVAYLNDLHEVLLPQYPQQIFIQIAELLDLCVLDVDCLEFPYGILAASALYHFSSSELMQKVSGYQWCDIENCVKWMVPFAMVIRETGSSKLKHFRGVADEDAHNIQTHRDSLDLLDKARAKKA
| Substitution | normalised enrichment score |
| --- | --- |
| R5V | 0.621 |
| K6F | 3.45 |
| S2N | 5.49 |
| L7M | 0.291 |
| S2C | 4.95 |
| F9W | 2.41 |
| K6D | 0.354 |
| V4W | 1 |
| D11S | 5.16 |
| T12M | 5.51 |
| D11F | 4.78 |
| S2L | 4.23 |
| V4T | 2.29 |
| L7K | -0.0803 |
| K6G | 0.523 |
| V4S | 2.57 |
| D11K | 4.32 |
| L7H | 0.189 |
| L7D | -0.0812 |
| V4Y | 1.88 |
| L7T | 0.133 |
| R5K | 2.82 |
| A3R | 0.296 |
| A3Y | 4.82 |
| A3E | 0.835 |

Mixed results
| Molecule | target | test | system | setting | scale | endpoint | value |
| --- | --- | --- | --- | --- | --- | --- | --- |
| PhoQ, residues 284 288 289 292 302 303 MLMVEA | PhoP, residues 12 14 15 18 19 LQHIR (Escherichia coli, UniProt P23836) | Sort-seq, item: YFP reporter | E. coli | PhoQ-PhoP variant library, added: 10 µM Mg2+ | reference: high Mg2+ state, higher = stronger signaling | fold induction | 19.2 |

Excerpt of the above (block 5):
| Sequence | log2 enrichment |
| --- | --- |
| UCCUGUGCUACACAUCGUAUGUACCGAAUCGGGGUUUUUGGGGUGGGGUUUUUUUGGGGAAAGUAUUAUGUUACGCCGUUCGGAUCUGCA | 1.86 |
| AGUCCUGUGCUACACAUCGUAUGUACCGAAUCGGGUUUGGGUUUGGGAAAAAAAGGGAAAGUAUUAUGUUACGCCGUUCGGAUCUGCACU | 0.222 |
| UCAAGUCCUGUGCUACACAUCGUAUGUACCGAAUCGGGGUUGGGUUGGGUUGGGAAAGUAUUAUGUUACGCCGUUCGGAUCUGCACUUCC | 1.91 |
| CACAGACAACACGCACCCACACAGACACAGAGGGAAGGGGUUGGGAUGGGGACAGGGUGCACCGCAGGGCGGGGUAGGACCCCAGCCCCU | -0.589 |
| UGCGAUAUGAACGUUCACAAGCAAUGCGUCAUCAAUGUCCCCAGCCUCUGCGGAAUGGAUCACACUGAGAAGAGGGGGCGGAUUUACCUA | -1.2 |
| CACAGACAACACGCACCCACACAGAUACAGAGGGAAGGGGUUGGGAUGGGGACAGGGUGCACAGCAGGGCGGGGUAGGACCCCAGCCCCU | -0.00531 |
